Published values from different studies.
Parts stem from different laboratories: compare values within a part only.

Study 1
Target: Ras GTPase-activating protein-binding protein 1, full length (G3BP1, Homo sapiens, UniProt Q13283)
Chain of UniProt Q13283 (whole entry, looked up): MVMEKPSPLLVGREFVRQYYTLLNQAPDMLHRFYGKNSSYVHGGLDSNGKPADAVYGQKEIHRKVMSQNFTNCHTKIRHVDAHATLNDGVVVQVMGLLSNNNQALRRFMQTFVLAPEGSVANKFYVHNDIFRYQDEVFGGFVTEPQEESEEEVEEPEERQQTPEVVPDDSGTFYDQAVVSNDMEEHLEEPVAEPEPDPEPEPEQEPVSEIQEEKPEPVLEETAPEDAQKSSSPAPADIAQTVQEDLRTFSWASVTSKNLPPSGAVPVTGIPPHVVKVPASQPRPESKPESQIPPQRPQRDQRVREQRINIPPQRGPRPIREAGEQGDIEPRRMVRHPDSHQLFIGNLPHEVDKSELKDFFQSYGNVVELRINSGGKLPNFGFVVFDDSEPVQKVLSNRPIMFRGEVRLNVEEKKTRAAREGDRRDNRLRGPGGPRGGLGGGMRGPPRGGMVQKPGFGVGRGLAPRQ
Method: RNA Bind-n-Seq
Form: RNA
Medium: in vitro
Concentration: 200 nM
Notes: whole 134-nt RNA, ends assumed
Together with: 150 mM LiCl
Baseline: input library
Direction: higher = stronger binding
Library: 7-deaza-guanosine replaces G
Constant ends, left off below: GGGAGUUCUACAGUCCGACGAUC … UGGAAUUCUCGGGUGUCAAGG
Oligonucleotide | log2 enrichment
AGUCCUGUGCUACACAUCGUAUGUACCGAAUCGGGGAAAAAGGAAAAAGGAAAAAGGAAAGUAUUAUGUUACGCCGUUCGGAUCUGCACU | -1.21
GCAGGAAGUAAAAACAAACGGAAAUGCUUCGGAUAGUGGCAGGGGUGGGGGUUGCUAAGGAAAGGGUGGGAUGGGAGUGGGUAAAGAGUU | 0.0193
AGUCCUGUGCUACACAUCGUAUGUACCGAAUCGGGGAAAGGGGAAAGGGGUUUGGGGAAAGUAUUAUGUUACGCCGUUCGGAUCUGCACU | -0.856
UCAAGUCCUGUGCUACACAUCGUAUGUACCGAAUCGGAAAAAGGAGGAAAAAGGAAAGUAUUAUGUUACGCCGUUCGGAUCUGCACUUCC | -0.163
UGGGAGGUGGAUUUUGUUUAUUUUUUUAGCUCAUUUCCAGGGGUGGGAAUUUUUUUUUAAUAUGUGUCAUGAAUAAAGUUGUUUCUGAAA | -0.421
UUGAACAUCUGCAGGAAAAGAGGCGAGAGGGCACUUUGAGAGUGGAUACCUACACUCUAGUGCAGCCUGAGGCAGAAGACCAUGUUGAGA | -0.739
UGUGCUACACAUCGUAUGUACCGAAUCGGGGAAAAAGGGGAAAAAAAGGGGUUUUUUUGGGGAAAGUAUUAUGUUACGCCGUUCGGAUCU | 0.355
UCCUGUGCUACACAUCGUAUGUACCGAAUCGGGAAAAAAGGAAAAAAGGGGAAAAAAGGAAAGUAUUAUGUUACGCCGUUCGGAUCUGCA | -0.514
UGGCCCUGGUGGCAUGCGGGGAGGAAGAGGUGGCCUCAUGGAUCGUGGUGGUCCCGGUGGACUGUUCAGAGGUGGCCGUGGUGGAGACAG | 0.648
CCUGUGCUACACAUCGUAUGUACCGAAUCGGGGAAAAAAGGGGAAAAAAGGGAAAAAAGGAAAGUAUUAUGUUACGCCGUUCGGAUCUGC | 0.581
CCUGUGCUACACAUCGUAUGUACCGAAUCGGUUUUUUUGGUUUUUUUGGGUUUUUUUGGGGAAAGUAUUAUGUUACGCCGUUCGGAUCUG | -0.685

Study 2
Target: TAR DNA-binding protein 43, full length, His tag (TARDBP, Homo sapiens, UniProt Q13148, residues 1-414)
Method: RNA Bind-n-Seq
Form: RNA
Medium: in vitro
Concentration: 20 nM
Notes: 6-mer, flanks averaged, single round
Together with: 150 mM KCl
Baseline: input library
Direction: higher = stronger binding
Oligonucleotide | 6-mer enrichment (R)
UUCCUA | 0.549
UAAGGU | 0.783
ACAAUA | 0.895
GACCAU | 0.685
AACGUA | 0.636
GUUAUG | 0.906
CAAGGA | 0.897
AAGUUU | 0.611
GGCCAA | 1.15
ACAAUU | 0.667
AAAUUG | 0.662
AGCCCU | 0.635
GAUAGC | 0.851
ACGCCC | 0.672
ACUCCA | 0.614
UCCGCG | 0.873

Study 3
Target: RNA binding protein fox-1 homolog 2, RRM domain, GST-SBP tag (RBFOX2, Homo sapiens, UniProt O43251-10, residues 100-194)
Method: RNA Bind-n-Seq
Form: RNA
Medium: in vitro
Concentration: 365 nM
Notes: natural RNA segment, single round, ends assumed
Baseline: no-protein control
Direction: higher = stronger binding
Constant ends, left off below: GGGAGUUCUACAGUCCGACGAUC … UGGAAUUCUCGGGUGCCAA
Residues (chain): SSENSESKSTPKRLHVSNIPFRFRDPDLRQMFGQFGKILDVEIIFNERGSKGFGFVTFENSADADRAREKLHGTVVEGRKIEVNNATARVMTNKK
Oligonucleotide | RBNS enrichment (R)
GGUGAGCUCCACAAAUGAGGGCUCCCCAUCCCCACCAGAGCCGACUGGCAAGGGCAGCCUAGACACCAUGCUGGGGCUGCUGCAGUCCGACCUCAGCCGCCGGGGUGUUC | 0.284
GUCCCUUUCUGCAGAGGAAGGGAUGCUCGCAGGGUGGCAGUGGCCCAGCCCCAGCCUCAGGGACGGGGAGGGAGAGCCCCCUCUGGGCCCAGCAGGCAGGUGUUCUGAGG | 0.135
UCCUCCAGCCCUUCAGACGAGAUCCUGUUUCAGCUAAAUGCAGGGAAACUCAAUGUUUUUUUAAGUUUUGUUUUCCCUUUAAAGCCUUUUUUUAGGCCACAUUGACAGUG | 0.393
UGGUUAAGGAACGUUCCUGCAAACAUUCAAGUAGACCUUCUAUAACAGACUGCAGCGUGCAUGGCCUCUACCCACAAGAGAUGCACUGCAGGAGGCCGGCCCUGUUCUCU | 0.895
UUGUUAUAGUAACAUAAAUAAUACACAGAAUUUUGUUACACUAUCAGUUUGGGGGGUGAGCUUUGAUUAAUUCCCCAGGCUCUUGGAUUUCAAGAGUAGCUGCCUUAAAA | 0.373
CCUCACCCUGUGUUGCCCACCUCAGCCACCACUAAGACUGAUACUGAAAUAAAUCAUGUUAAUCCCAGCUGUGUGCUAUCACUCUUGGCCUUCUAUGUCCAGCCCAGUCU | 0.333
AGCUGAAUAGUUUGCACAAGAACGGGAUGCUAGUAAAAACAUAAAAAUAACUCGAAUCAAAUUCCAAUUCCAGUGCCUCCUGUUUUCAAUACCAAGCAGGCAAUCCGCAU | 0.575
UCCAAGUCACUAAAGAGUUACUAAAGUUAGGCACUUAAUACUAAUUUUAAAUAUGUCUAAAAAUAAAGUAAUCUGGGGACUGAGUUGAAAUGUCAGUGAACAUGAGUAUU | 0.35
GGGAAGGGUCAAAGUGUGGACAUUGAGAAGAGGAGAGGAAAGGAGCAAGAGCUGAACUCCUGCUGCCUGGUAGGCCCCACAAGGCCUAGUCUGGAAGCGUAUGGAAUCAG | 1.03
AGGGAGCCCUCAGGUCUAUAGGAAAGGCCCCUCUUAAGACAGAAACGGUUUAACAGCAAGGGUACAAAGGCUGUAGUUUGAGGCCAGAGCAAUUAGCGCUUGUCAGCUUA | 0.524
GCCUUCUUUUCCCACGCCUCUAACUUAAUGUUUUAUAUUUGAAUUGUGUGGCUCAAGGGUCAUGUAUAGUUUGUGGAAUUUUUCCAAUUAAAUGUCUUGCUUACAGUGGU | 0.999
AAAAAAAAAAUGCUUUCCUGCCGGGGGGCAGGGGAGACGGAGAAACCCAUGUGCGUUUCCCAUGUGACCCCCUCCUCCCUGUGGGUCUGAGCCCCGGCCCCCCCCACCUC | 0.395

Study 4
Target: RING finger protein unkempt homolog, zinc fingers 1-6, GST-SBP tag (UNK, Homo sapiens, UniProt Q9C0B0, residues 30-357)
Method: RNA Bind-n-Seq
Form: RNA
Medium: in vitro
Concentration: not given
Notes: RNA with constant flanks, ends assumed
Baseline: input RNA pool
Direction: higher = stronger binding
Constant ends, left off below: GGGAGUUCUACAGUCCGACGAUC … CAACAGAGGAUUGAGCAUCA
Construct (chain): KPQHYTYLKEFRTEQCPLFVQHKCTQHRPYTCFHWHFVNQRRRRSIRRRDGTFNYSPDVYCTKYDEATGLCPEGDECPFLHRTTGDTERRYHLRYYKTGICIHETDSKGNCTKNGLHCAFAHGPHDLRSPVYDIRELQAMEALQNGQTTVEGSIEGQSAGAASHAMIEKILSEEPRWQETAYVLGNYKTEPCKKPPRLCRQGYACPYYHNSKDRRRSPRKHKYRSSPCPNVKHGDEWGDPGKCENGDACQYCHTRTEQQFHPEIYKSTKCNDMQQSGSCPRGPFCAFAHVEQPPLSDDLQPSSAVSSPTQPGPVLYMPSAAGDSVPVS
Oligonucleotide | bound/input enrichment [ratio]
AAGGAGCCGGUGCUGGUGGUGUCCUUCUCUGUCUGGGGCCUCGCUAUAAUUAUGCCCAUGAUCCGCCCCUACACCAAGUAUGCUAGCAUGAUCAACAAGGCCACACCCUACAACUACCCA | 0.132
GAAAAGAGUGGAAAACAAGGCUCUCCAGACCAAGUAAGUCCAGUUUCUGAAAUGACUUCUACCCGUCUUUACCAAGACAAACAGGAAGGGAAAAGCACAGACUUUGCACCAAUAAAAGAA | 0.274
GCAGGCUACUUUUUGGAACAUCUGGCUUUCAAGGGAACAAAGAAUCGGCCUGGCAAUGCCUCCGAGAAGGAGGUAGAGAGUAUUGGGGCUCAUCUUAAUGCCUACAGCACUCGAGAGCAC | 0.115
AACAAAUACUGGCCCCUCUUUGUUCUAUUUUUUUACAUCCUUUCACCUAUUCCAUACUGCACCGCAAGAAGAUUAGUGGAUGAUACAGAUGCUAUGAGUAACGCUUGUAAGGAACUUGCC | 0.312
UAAGAGAACAGCCAGAUGGUUUAUAUGAAUAAUCUUUAUCUGCAGGAUGGUGGAUUGGUAAAUCCGGAGAAUGUUGUUUGAGAUAUCAAGAUUUAUGUCUGGGAACUAAAAUAUAUAAUG | 0.338
GCUAGUUCUAGUUAGUCUAUAUUGUUUGUUUUUUCAGUCUUCUUUUUCUAGCAUGCUUUACACCGGAGAGAAUAAAGGGCUAUUUAAUAAGCAAUCCGGAUCUCAGAGAACAUAGUAAUA | 7.14
GCUGCCCUUUCUGUUCGUAAUCUUUCACCUUAUGUUUCCAAUGAACUGUUGGAAGAAGCCUUCCGCCAAUUUGGUCCUAUUGAAAGGGCUGUUGUAAUAGUGGAUGAUCGUGGAAGAUCU | 0.147
AUUUUAGCUCUGAUCUCACUCUUCAGUAUUCCUGUUAUAUAUGAACGGCAUCAGGCGCAGACCGAUCAUUAUCUAGGACUUGCAAACAAGAGCGUUAAGGAUGCCAUGGCCAAAAUCCAA | 0.318
ACCUGGGGCAUUCAGCCAGCGCCCAUGCCUGUGCCUGUGUGGGUGAUCAUUUUAGCAGUUCCCGCAGGAUUGUUGCUACUGGCUGUUUUGGUAUUUGUAAUGUACAGGAUGGGCUUUUUU | 0.406
CAGAACUGUGGCCCGAGUUUCCAAUCUCUGAUUGUGAAGAAGGAGUUCAUUAAAGAUACUCCCGUUAAGCUGCUGAAUCCCAGAUACACCUUACCGCUGGAGACCCAGAACAGAAUCUUG | 0.0786
GCCGGCAUAGAUGGGGUGGUUAGUAUGAGGUUCAAGGUGAAAAGAUCAGAAUACUGAGAGCCGAGUGCCAAAGGGGAAGGGAGACAGAAGCAAGGGAAAUAAAUGACACUAAUAAUGAAA | 1.06

A few entries again (study 1):
Oligonucleotide | log2 enrichment
UGUGCUACACAUCGUAUGUACCGAAUCGGGGAAAAAGGGGAAAAAAAGGGGUUUUUUUGGGGAAAGUAUUAUGUUACGCCGUUCGGAUCU | 0.355
GCAGGAAGUAAAAACAAACGGAAAUGCUUCGGAUAGUGGCAGGGGUGGGGGUUGCUAAGGAAAGGGUGGGAUGGGAGUGGGUAAAGAGUU | 0.0193
UCCUGUGCUACACAUCGUAUGUACCGAAUCGGGAAAAAAGGAAAAAAGGGGAAAAAAGGAAAGUAUUAUGUUACGCCGUUCGGAUCUGCA | -0.514
UGGGAGGUGGAUUUUGUUUAUUUUUUUAGCUCAUUUCCAGGGGUGGGAAUUUUUUUUUAAUAUGUGUCAUGAAUAAAGUUGUUUCUGAAA | -0.421
UUGAACAUCUGCAGGAAAAGAGGCGAGAGGGCACUUUGAGAGUGGAUACCUACACUCUAGUGCAGCCUGAGGCAGAAGACCAUGUUGAGA | -0.739
CCUGUGCUACACAUCGUAUGUACCGAAUCGGGGAAAAAAGGGGAAAAAAGGGAAAAAAGGAAAGUAUUAUGUUACGCCGUUCGGAUCUGC | 0.581
AGUCCUGUGCUACACAUCGUAUGUACCGAAUCGGGGAAAAAGGAAAAAGGAAAAAGGAAAGUAUUAUGUUACGCCGUUCGGAUCUGCACU | -1.21
